Results of several laboratories.
A part holds a random share of what one study measured.

Sample 1
Target: RNA binding protein fox-1 homolog 2, RRM domain, GST-SBP tag (RBFOX2, Homo sapiens, UniProt O43251-10, residues 100-194)
Method: RNA Bind-n-Seq
Molecule type: RNA
Sample: in vitro
Concentration: 365 nM
Notes: natural RNA segment, single round, ends assumed
Relative to: no-protein control
Direction: higher = stronger binding
Residues (chain): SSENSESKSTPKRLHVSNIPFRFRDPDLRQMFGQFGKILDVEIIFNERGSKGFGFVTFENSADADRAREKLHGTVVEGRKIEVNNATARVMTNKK
Oligonucleotide	RBNS enrichment (R)
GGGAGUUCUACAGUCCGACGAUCGUUUUGCGAUCCUAGGAUGCGUCCCAGACGCUCAGUCAGAAGUGCUGGAGGUGGGGCCUGGGAAGCUGUAUUUGUAAUGAACUCUGGUGUUUUUUGUCCAUUAAAGUGUAUGGAAUUCUCGGGUGCCAA	2.05
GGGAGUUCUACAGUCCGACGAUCGAACAUUAAGCUAUUUAACCCUCAAAGUUGACCAUGCUUCCAGGACCACAGCACACCCAAGGACAUGUGCCUGUCCGGGAGGGCAGCAUGCCGACUUGAUCUUUGAGCCCUGGAAUUCUCGGGUGCCAA	0.398
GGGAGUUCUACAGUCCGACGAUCGCCAUUGUGAGGUUGGGGGAAGACCUGGCCGUGGAGCUACAAGCUUGUGCGGAUGUCAGGGGACAUUACUGUUGCUAAUAAAGUCCAAAGUGGCCAAUGCCUUUCCCAAAUGGAAUUCUCGGGUGCCAA	0.641
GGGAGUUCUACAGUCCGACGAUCCUUUCCCAUGUACUCAGUUUAGCUCUCAAAGAAGGGGUGAAUCAUAAAGCCAGUGAAAAUUUCACCCUCUGAGGGAGUUCCCCAAUCUGAAGGGGAAGAGGGUGACCUCAUGGAAUUCUCGGGUGCCAA	0.512
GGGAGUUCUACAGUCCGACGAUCGGCUCCCUCCUCAGCCUCCUGCCCACCCAGGGCCCUUUACUCUCUUCUCCCUCCAGACCUUCCUCUGACCCUUGCUGAACUGGGGUCCCUUUGUGAGUGUCUCAGUCUAGUGGAAUUCUCGGGUGCCAA	0.764
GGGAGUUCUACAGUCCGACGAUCGCAUAUUGUUUAUAAAGAUACAUUUACAAUUUACUUUUAAUAUUAAAAAUUACCACAUUAUAAAAUUGUUUAUAGUAUUUAAAGAAUGAAUGCAUGUCUCCCAUUCUGCCUGGAAUUCUCGGGUGCCAA	1.15
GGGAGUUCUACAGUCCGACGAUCUAUCUGAUGGUGCAGUUUUGGGGUCUGUCCCCACUCCCCUCAGUCCCUACCCCUGCUCCCCUCAGACAUGGGGCAGGAAACAGCAGGUGCGCUGGGCAGGAGGAAGGCAUUGGAAUUCUCGGGUGCCAA	0.212
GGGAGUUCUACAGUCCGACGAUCCCAAGGAAUACUAUAUAAAGUAAUGAGACUGGUUUAAAGUAACAUGCCAGAACUUACGCAUCCAAUGUGGGUUGUCACUUGUUAUUCCCAAGUACUAUUAUUCCAUACUAUGGAAUUCUCGGGUGCCAA	0.44
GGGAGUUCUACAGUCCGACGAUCAGAGAGCCCAGAACACCUGGGCAAGUAGGCGGACUGGCAGCCUGGCUCUGGGCCCUCGUCCACCGGGCCAAGUGGAGCCCCGCUUCAAGCUCUCUGUUCAGCUCCGCGUUUGGAAUUCUCGGGUGCCAA	0.309

Sample 2
Target: Centromere-binding protein 1, full length, His-tagged (CBF1, Saccharomyces cerevisiae, UniProt P17106, residues 1-351)
Chain of UniProt P17106 (whole entry, looked up): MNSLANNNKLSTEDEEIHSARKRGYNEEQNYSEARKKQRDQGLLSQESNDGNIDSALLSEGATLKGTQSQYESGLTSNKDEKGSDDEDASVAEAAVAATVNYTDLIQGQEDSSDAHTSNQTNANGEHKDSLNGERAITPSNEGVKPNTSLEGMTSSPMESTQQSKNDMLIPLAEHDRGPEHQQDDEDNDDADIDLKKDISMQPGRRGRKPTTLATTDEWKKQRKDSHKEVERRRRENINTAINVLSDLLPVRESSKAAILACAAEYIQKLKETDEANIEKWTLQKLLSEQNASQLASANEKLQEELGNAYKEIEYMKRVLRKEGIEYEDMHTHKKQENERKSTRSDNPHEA
Method: competition protein-binding microarray
Molecule type: double-stranded DNA, one strand shown
Sample: in vitro
Concentration: 2 µM
Notes: whole 60-bp probe, lowest competitor level
Together with: Pho4 competitor, 0.05 µM
Direction: higher = stronger binding
Oligonucleotide	fluorescence intensity [a.u.]
CAGCCCAGGTCCAATGTCGTGCAAAACGCAGATCCTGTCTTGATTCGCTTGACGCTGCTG	58.9
GAGAGGATTGCGACCTTGTTATCATGGCATTGATGTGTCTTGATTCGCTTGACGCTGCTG	56.5
TGCGCAACAACTTGCACCGTGGGTGTATGTCTAGAAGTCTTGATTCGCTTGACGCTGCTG	66.8
GCGTAAGTCGCTCCACACGTACATTGCTGTGGTGCAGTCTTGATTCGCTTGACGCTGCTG	60.5
GTCTTGTCTCATTGCGAGGTGGGTGTCCCCACTTCAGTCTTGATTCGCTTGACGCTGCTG	88.3
CTTCTGTAAATTTGTAACGTGGGTGGACGCGCCCCGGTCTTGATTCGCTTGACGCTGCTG	86.2

Sample 3
Target: Ras GTPase-activating protein-binding protein 1, C-terminal RGG region (G3BP1, Homo sapiens, UniProt Q13283)
Chain of UniProt Q13283 (whole entry, looked up): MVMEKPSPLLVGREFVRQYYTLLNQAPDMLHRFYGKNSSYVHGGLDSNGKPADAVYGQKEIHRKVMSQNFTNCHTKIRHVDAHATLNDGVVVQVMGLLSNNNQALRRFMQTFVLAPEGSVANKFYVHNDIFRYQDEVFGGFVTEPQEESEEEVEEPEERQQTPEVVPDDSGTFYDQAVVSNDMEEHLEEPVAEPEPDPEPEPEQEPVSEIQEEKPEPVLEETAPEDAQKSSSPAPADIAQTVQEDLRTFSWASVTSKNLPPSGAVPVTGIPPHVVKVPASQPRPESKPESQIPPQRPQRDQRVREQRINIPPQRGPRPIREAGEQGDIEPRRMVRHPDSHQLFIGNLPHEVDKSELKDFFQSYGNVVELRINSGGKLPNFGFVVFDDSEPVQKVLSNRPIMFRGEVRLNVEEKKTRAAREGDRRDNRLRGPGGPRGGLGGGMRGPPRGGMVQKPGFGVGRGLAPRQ
Method: RNA Bind-n-Seq
Molecule type: RNA
Sample: in vitro
Concentration: 1 µM
Notes: whole 134-nt RNA, ends assumed
Together with: 150 mM KCl
Relative to: input library
Direction: higher = stronger binding
Oligonucleotide	log2 enrichment
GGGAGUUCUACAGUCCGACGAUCUGGCCCUGGUGGCGUGCGGGGAGGAAGAGGUGGCCUCAUGGAUCGUGGUGGUCCCGGUGGAAUGUUCAGAGGUGGCCGUGGUGGAGACAGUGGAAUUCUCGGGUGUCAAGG	2.11
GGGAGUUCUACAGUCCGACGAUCGCAGGAAGUAAAAACAAAUGGAAAUGCUUCGGAUAGUGGCAGGGGUCGGGGUUGCUAAGGAAAGGGUGGGAUGGGAGUGGGUAAAGAGUUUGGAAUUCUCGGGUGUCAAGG	0.803
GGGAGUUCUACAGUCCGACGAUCUGGGAGGUGGAUUUUGUUUAUUUUUUUAGCUCAUUUCCAGGGGUGGGAAUUCUUUUUUAAUAUGUGUCAUGAAUAAAGUUGUUUUUGAAAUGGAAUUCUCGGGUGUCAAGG	4.07
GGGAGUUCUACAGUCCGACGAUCCAAGUCCUGUGCUACACAUCGUAUGUACCGAAUCGGGUUUGGGAGGGUUUUUGGGAAAGUAUUAUGUUACGCCGUUCGGAUCUGCACUUCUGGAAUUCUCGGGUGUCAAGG	1.8
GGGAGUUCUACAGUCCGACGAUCCUCAAGUCCUGUGCUACACAUCGUAUGUACCGAAUCGGGGAGGGAGGGGAGGGAAAGUAUUAUGUUACGCCGUUCGGAUCUGCACUUCCAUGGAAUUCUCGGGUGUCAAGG	2.32
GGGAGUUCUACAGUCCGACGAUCACCAUGCAGGUGGGCAUCUCUGGGAAGUGGGGCAAGGGGGGGAUAGGGAGGGGGGUAACACUUUGGGAACAGGUGGUCCCAGGUCGUUUCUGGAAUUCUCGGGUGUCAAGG	-0.752
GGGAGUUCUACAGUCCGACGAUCUCAAGUCCUGUGCUACACAUCGUAUGUACCGAAUCGGGAAAGGGAGGGUUUGGGAAAGUAUUAUGUUACGCCGUUCGGAUCUGCACUUCCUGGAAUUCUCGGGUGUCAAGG	2.04

Further values, each from its own experiment
Substance	target	assay	system	conditions	how to read	endpoint	result
PhoQ, residues 284 288 289 292 302 303 AGCYAI	PhoP, residues 12 14 15 18 19 QWHVF (Escherichia coli, UniProt P23836)	Sort-seq, measured: YFP reporter	E. coli	PhoQ-PhoP variant library, together with: 10 µM Mg2+	relative to: high Mg2+ state, higher = stronger signaling	fold induction	0.822

For quick reference, copied from above (sample 3):
Oligonucleotide	log2 enrichment
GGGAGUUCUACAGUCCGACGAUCUGGGAGGUGGAUUUUGUUUAUUUUUUUAGCUCAUUUCCAGGGGUGGGAAUUCUUUUUUAAUAUGUGUCAUGAAUAAAGUUGUUUUUGAAAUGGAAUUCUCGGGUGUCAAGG	4.07
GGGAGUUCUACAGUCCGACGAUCCAAGUCCUGUGCUACACAUCGUAUGUACCGAAUCGGGUUUGGGAGGGUUUUUGGGAAAGUAUUAUGUUACGCCGUUCGGAUCUGCACUUCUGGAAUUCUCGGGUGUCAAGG	1.8
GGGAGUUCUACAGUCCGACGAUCCUCAAGUCCUGUGCUACACAUCGUAUGUACCGAAUCGGGGAGGGAGGGGAGGGAAAGUAUUAUGUUACGCCGUUCGGAUCUGCACUUCCAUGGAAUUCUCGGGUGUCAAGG	2.32
